Experimental data collected from several papers.
Every numbered part comes from another study and shows a few of its results, in no order.
Chain of UniProt Q00526 (whole entry, looked up): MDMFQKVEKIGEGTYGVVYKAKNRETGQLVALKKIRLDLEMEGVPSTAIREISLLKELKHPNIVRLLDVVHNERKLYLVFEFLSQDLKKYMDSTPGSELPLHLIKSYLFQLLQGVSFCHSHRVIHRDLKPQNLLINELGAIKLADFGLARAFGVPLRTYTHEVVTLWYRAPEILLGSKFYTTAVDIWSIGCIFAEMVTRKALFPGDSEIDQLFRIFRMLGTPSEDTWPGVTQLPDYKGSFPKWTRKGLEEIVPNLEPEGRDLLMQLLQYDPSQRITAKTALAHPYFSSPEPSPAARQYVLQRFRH
Chain of UniProt P25098 (whole entry, looked up): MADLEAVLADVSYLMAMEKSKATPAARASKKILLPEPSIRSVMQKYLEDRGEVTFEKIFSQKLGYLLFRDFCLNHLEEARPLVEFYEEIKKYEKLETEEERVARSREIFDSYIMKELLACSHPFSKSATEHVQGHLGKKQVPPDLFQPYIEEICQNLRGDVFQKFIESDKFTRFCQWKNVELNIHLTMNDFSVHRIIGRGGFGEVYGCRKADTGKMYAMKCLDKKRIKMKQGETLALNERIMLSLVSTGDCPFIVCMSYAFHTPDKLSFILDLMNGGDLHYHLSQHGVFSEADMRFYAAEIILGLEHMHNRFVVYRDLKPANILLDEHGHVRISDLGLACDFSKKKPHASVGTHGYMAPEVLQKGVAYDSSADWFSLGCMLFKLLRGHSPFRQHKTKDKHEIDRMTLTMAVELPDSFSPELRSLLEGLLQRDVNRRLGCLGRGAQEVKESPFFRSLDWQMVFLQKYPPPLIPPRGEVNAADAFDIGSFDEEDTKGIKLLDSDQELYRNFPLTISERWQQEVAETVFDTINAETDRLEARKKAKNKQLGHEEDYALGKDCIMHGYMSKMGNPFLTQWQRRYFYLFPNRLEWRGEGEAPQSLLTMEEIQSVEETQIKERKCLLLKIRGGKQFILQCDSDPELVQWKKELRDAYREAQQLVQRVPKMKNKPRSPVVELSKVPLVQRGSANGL
Chain of UniProt P31749 (whole entry, looked up): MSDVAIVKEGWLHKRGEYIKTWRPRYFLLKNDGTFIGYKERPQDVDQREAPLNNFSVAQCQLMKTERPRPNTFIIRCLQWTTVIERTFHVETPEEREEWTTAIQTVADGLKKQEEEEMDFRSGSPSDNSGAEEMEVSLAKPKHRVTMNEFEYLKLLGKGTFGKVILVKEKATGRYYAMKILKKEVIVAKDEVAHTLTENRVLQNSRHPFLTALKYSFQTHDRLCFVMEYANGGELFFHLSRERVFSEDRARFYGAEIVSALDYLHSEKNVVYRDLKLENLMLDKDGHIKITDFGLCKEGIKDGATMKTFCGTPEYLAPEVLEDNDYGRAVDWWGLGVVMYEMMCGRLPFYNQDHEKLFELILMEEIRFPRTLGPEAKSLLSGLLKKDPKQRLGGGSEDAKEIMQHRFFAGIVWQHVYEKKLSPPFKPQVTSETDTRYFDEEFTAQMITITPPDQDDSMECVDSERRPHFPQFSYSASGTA
Chain of UniProt P61075 (whole entry, looked up): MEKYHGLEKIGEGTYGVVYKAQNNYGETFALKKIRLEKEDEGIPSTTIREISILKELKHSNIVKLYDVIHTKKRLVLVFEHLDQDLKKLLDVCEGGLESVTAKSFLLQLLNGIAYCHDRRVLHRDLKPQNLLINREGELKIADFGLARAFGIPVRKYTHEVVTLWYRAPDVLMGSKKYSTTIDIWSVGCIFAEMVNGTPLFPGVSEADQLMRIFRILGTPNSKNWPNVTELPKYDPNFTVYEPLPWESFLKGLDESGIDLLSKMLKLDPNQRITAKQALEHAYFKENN
Chain of UniProt Q9Y3S1 (whole entry, looked up): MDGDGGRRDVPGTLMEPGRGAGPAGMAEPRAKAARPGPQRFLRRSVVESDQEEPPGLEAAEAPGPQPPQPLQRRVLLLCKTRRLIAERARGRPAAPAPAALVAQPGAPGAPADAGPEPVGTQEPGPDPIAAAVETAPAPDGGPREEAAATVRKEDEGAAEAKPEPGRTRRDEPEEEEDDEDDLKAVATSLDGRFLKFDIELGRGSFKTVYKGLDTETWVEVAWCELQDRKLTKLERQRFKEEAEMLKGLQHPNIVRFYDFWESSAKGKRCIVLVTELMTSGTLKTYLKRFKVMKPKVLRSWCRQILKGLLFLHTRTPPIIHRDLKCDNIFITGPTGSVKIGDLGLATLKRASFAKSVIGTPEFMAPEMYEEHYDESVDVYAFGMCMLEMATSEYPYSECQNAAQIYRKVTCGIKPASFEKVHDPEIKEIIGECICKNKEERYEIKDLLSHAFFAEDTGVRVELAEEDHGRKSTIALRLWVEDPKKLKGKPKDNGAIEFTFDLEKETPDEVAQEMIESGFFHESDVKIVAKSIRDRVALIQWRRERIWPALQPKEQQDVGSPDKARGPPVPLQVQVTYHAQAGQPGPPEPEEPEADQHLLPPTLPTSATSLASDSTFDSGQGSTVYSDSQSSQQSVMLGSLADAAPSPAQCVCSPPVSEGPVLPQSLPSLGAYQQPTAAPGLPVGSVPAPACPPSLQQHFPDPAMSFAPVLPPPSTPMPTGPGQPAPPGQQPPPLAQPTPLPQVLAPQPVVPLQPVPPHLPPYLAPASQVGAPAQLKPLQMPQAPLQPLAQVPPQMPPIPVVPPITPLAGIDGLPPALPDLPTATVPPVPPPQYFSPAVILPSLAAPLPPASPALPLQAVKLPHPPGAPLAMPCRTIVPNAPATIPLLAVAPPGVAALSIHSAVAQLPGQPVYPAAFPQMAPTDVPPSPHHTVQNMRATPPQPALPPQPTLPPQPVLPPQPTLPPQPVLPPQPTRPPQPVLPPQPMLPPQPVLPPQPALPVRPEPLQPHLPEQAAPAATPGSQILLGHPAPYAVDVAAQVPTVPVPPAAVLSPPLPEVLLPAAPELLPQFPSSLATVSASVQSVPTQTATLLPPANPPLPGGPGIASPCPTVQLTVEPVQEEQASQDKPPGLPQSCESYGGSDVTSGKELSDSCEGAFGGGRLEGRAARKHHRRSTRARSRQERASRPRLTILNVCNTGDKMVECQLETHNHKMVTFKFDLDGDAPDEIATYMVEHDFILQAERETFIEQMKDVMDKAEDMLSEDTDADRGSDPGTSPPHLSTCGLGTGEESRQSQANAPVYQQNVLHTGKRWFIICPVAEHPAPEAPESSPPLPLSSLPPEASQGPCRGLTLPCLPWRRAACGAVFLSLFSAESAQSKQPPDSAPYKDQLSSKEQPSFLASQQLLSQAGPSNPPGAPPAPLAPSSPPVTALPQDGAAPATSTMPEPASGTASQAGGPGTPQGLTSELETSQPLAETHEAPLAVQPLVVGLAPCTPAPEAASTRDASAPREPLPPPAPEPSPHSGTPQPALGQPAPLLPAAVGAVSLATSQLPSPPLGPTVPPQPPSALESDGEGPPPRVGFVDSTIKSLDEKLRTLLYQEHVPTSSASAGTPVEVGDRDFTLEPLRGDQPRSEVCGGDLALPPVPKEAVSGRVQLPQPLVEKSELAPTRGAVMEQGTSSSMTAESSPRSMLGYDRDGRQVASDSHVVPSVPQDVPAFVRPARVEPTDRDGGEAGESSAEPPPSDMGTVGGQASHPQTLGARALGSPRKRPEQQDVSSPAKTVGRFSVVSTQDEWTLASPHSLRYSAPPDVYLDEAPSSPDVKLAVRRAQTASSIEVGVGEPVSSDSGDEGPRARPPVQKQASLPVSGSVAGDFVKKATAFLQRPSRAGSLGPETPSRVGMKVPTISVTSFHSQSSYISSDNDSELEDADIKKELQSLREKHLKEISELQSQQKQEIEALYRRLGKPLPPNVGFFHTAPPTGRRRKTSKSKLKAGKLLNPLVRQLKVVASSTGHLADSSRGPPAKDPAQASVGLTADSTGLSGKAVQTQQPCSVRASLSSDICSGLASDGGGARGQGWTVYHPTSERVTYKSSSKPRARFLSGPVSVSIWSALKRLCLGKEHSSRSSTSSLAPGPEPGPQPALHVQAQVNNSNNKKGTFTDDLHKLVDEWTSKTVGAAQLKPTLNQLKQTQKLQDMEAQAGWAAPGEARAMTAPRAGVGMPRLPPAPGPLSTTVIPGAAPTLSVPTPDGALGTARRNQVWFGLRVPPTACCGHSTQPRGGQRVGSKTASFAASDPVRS
Chain of UniProt P19784 (whole entry, looked up): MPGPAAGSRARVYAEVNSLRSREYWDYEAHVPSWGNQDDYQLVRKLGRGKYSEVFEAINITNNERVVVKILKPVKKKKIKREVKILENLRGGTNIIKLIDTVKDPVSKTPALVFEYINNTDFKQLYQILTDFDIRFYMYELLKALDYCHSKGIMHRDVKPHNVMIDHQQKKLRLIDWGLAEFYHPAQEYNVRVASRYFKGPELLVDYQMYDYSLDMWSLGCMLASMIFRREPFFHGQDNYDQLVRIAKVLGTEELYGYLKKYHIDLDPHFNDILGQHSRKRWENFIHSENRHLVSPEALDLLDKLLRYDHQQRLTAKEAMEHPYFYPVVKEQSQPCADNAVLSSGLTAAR
Chain of UniProt O14965 (whole entry, looked up): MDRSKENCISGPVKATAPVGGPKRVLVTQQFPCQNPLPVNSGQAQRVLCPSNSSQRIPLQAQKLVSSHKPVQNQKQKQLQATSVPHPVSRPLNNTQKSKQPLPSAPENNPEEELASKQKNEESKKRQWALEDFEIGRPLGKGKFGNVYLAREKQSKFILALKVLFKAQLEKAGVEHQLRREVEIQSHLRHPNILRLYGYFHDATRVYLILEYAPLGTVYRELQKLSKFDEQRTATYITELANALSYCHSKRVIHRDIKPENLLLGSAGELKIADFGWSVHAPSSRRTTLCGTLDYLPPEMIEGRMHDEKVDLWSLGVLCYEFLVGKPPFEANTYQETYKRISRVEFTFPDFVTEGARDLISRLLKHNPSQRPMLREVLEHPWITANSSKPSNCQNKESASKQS

Set 1
SMILES: CC(C)(C)c1cc(C=C(C#N)C#N)cc(Br)c1O
Read-out: enzyme activity
Mode: inhibitor
Tested at: 0.5 µM
target | baseline | remaining activity [%]
Cyclin-dependent kinase 3, with cyclin E (CDK3, Homo sapiens, UniProt Q00526) |  | 98.9
CSNK2A2 (Homo sapiens, UniProt P19784) | control | 94.5
GRK2 (Homo sapiens, UniProt P25098) |  | 83.7
Aurora kinase A (AURKA, Homo sapiens, UniProt O14965) | control | 89.8
WNK2 (Homo sapiens, UniProt Q9Y3S1) |  | 126

Single results of other studies
SMILES | tested on | read-out | technique | tested at | time | measurement | result
CN(C)C(=O)Cn1cc(-c2nc(C3(c4ccc(-c5cnc(N)nc5)cc4)CC3)no2)cn1 | CDPK1 (Plasmodium falciparum, UniProt P62344) | cell-free assay | competition with immobilised ligand | 1 µM |  | remaining binding | 82%
CCO[C@H]1O[C@@H]2O[C@@]3(C)CC[C@H]4[C@H](C)CC[C@@H]([C@H]1C)[C@@]24OO3 | HaCaT |  |  | 100 µM | 60 h | viability | 43.4%
Cn1nc(C(=O)NCc2ccc(C(=O)O)cc2)cc1-c1ccc2[nH]ccc2c1 | CRK2 (Plasmodium falciparum, UniProt P61075) | cell-free assay | competition with immobilised ligand | 0.1 µM |  | remaining binding | 74%
CC(CN(C)C)CN1c2ccccc2Sc2ccccc21 (stereo not shown) | VeroE6/TMPRSS2 |  |  |  | 17.5 h | CC50 | 26.3 µM
Cc1cc(C)c(-n2ccn3nc(-c4cccnc4)cc23)cc1NC(=O)c1cc(C#N)cc(S(F)(F)(F)(F)F)c1 | AKT1 (Homo sapiens, UniProt P31749) | cell-free assay | competition with immobilised ligand | 0.1 µM |  | remaining binding | 90.9%
